{"data": "Earlier results, collected from citations in different studies", "note": "Numbered parts are unrelated; values within a part may stem from several laboratories. ± gives the spread as reported.", "sequence of UniProt Q01959 (whole entry, looked up)": "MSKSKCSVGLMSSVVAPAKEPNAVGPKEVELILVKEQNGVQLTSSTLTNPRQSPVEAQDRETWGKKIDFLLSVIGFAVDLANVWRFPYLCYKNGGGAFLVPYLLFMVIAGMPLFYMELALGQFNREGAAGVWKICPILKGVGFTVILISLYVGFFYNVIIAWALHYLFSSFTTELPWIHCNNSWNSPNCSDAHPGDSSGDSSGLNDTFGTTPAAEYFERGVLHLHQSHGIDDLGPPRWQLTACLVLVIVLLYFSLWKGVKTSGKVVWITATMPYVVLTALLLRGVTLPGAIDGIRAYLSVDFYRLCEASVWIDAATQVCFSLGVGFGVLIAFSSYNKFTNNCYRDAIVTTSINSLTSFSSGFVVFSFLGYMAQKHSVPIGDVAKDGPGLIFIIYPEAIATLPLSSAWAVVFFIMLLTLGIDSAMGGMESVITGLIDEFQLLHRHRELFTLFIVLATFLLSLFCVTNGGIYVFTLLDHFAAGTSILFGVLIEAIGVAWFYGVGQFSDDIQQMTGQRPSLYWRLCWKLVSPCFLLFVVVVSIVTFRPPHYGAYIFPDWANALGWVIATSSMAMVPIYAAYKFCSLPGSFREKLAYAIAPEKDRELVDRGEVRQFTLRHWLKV", "sequence of UniProt Q9JLB5 (whole entry, looked up)": "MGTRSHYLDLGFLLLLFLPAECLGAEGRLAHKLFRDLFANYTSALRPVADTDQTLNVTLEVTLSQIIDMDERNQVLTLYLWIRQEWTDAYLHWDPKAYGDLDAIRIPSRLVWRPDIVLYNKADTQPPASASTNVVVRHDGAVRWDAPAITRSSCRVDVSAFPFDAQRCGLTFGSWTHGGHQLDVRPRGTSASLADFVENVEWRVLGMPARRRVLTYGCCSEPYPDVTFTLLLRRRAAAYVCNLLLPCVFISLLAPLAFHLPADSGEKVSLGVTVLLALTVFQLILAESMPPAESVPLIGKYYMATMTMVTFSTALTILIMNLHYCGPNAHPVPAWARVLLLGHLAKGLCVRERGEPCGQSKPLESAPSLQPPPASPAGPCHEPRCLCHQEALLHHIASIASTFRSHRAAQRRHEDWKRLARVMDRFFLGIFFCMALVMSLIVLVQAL", "sequence of UniProt P69848 (whole entry, looked up)": "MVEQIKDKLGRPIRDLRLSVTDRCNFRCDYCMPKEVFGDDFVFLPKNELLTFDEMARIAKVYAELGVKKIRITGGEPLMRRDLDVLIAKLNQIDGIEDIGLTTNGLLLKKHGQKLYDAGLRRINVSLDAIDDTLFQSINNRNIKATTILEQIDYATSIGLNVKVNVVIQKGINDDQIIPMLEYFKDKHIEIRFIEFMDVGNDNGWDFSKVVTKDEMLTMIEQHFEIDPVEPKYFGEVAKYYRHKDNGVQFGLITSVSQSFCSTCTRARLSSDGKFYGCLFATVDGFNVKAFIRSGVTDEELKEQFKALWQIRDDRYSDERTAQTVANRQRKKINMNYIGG", "sequence of UniProt P42336 (whole entry, unmodified, looked up)": "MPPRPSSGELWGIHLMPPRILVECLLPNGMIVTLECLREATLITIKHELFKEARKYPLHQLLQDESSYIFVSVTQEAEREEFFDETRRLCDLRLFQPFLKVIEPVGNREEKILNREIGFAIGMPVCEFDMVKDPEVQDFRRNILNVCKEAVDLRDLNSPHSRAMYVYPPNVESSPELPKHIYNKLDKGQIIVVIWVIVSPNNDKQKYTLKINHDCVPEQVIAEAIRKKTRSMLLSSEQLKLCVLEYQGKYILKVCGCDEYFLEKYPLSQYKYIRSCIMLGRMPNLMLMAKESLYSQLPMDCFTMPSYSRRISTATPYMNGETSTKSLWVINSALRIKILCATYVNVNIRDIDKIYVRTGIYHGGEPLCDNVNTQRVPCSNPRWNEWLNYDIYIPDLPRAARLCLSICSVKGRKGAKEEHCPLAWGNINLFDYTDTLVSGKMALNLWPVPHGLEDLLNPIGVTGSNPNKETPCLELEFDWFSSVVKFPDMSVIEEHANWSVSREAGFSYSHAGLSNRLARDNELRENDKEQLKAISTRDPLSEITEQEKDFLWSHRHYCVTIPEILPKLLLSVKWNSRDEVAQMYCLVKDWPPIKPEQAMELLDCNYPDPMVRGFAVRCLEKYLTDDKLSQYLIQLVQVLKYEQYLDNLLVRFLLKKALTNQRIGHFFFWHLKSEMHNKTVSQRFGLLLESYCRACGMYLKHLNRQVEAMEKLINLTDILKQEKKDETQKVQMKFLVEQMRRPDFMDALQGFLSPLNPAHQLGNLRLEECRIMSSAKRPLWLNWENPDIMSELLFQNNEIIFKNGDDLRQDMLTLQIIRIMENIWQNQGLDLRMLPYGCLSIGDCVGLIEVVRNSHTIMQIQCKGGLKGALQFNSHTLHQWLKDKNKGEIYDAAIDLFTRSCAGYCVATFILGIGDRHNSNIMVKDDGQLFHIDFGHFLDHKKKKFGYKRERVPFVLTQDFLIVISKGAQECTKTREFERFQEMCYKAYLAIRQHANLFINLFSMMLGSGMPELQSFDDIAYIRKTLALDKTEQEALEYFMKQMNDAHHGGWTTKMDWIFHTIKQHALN", "sequence of UniProt P04789 (whole entry, looked up)": "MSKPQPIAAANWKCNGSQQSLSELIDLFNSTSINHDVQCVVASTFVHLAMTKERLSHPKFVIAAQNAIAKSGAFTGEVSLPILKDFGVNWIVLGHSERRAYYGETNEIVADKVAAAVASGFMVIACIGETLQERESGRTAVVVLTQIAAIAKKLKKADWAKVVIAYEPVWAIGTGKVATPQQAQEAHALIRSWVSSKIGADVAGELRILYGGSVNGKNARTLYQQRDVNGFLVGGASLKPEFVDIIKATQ", "sequence of UniProt P43144 (whole entry, looked up)": "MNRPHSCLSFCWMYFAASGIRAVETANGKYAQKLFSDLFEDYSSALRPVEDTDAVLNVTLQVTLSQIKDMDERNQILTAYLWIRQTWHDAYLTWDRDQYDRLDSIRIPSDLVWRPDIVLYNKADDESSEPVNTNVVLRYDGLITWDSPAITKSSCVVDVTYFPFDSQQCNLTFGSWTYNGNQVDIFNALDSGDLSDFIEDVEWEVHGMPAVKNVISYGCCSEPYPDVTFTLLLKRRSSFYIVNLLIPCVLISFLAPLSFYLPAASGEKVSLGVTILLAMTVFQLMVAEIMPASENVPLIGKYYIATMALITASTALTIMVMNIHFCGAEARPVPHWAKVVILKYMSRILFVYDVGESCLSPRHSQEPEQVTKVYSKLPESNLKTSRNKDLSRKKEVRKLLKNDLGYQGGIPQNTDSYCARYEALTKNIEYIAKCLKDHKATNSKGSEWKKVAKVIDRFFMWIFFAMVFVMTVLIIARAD"}
{"data": "Series 1", "target": "HLA class I histocompatibility antigen, A alpha chain, allele A*25:01 (Homo sapiens, UniProt P04439)", "effect on": "peptide-MHC binding", "form": "peptide"}
{"Sequence": "ETIEILRNY", "IC50 [µM]": 0.012}
{"Sequence": "YQIEGAWRA", "IC50 [µM]": "> 20"}
{"Sequence": "EVIPYTPAM", "IC50 [µM]": 0.011}
{"Sequence": "CASSSDWFY", "IC50 [µM]": "> 20"}
{"Sequence": "LEYFQFVKKLL", "IC50 [µM]": "> 20"}
{"Sequence": "KVGFIMLFH", "IC50 [µM]": "> 20"}
{"Sequence": "MHGHGKHIL", "IC50 [µM]": "> 20"}
{"Sequence": "AQSDFMSWV", "IC50 [µM]": "> 20"}
{"Sequence": "KVADVDLAVPV", "IC50 [µM]": "> 20"}
{"Sequence": "ESEVDDPAM", "IC50 [µM]": "> 20"}
{"Sequence": "SAYYLDIGF", "IC50 [µM]": "> 20"}
{"Sequence": "KLHCTERSL", "IC50 [µM]": "> 20"}
{"Sequence": "MVRVLTVIKEY", "IC50 [µM]": 1.29}
{"Sequence": "NNIEFNFTY", "IC50 [µM]": "> 20"}
{"Sequence": "TVYGLGADV", "IC50 [µM]": "> 20"}
{"Sequence": "PLFPGITRV", "IC50 [µM]": "> 20"}
{"Sequence": "LEGLADAIW", "IC50 [µM]": "> 20"}
{"Sequence": "FEFILRYGD", "IC50 [µM]": "> 20"}
{"Sequence": "LSIIFGRSY", "IC50 [µM]": "> 20"}
{"Sequence": "DSPATLSAY", "IC50 [µM]": 0.078}
{"Sequence": "KSLTTTMQFK", "IC50 [µM]": "> 20"}
{"Sequence": "SQYDPKELL", "IC50 [µM]": "> 20"}
{"Sequence": "YQAENSTAE", "IC50 [µM]": "> 20"}
{"Sequence": "QLFPELECF", "IC50 [µM]": "> 20"}
{"Sequence": "LQKIPLQWF", "IC50 [µM]": "> 20"}
{"data": "Single results of other studies"}
{"Structure (SMILES)": "C=C(C)[C@@H]1CCC(C)=C[C@H]1c1c(O)cc(CCCCC)cc1O", "assay": "measured: midazolam", "test system": "human", "conditions": "dose not given, with: midazolam", "quantity": "AUC increase", "value": "58%"}
{"Structure (SMILES)": "CCc1c2c(nc3ccc(OC(=O)N4CCC(N5CCCCC5)CC4)cc13)-c1cc3c(c(=O)n1C2)COC(=O)[C@]3(O)CC", "assay": "measured: maternal toxicity", "test system": "rat", "conditions": "organogenesis dosing", "quantity": "NOAEL", "value": "1.2 mg/kg"}
{"Structure (SMILES)": "COc1ccc2c(c1)[nH]c1c(C)nccc12", "target or system": "CDK2/cyclin A", "assay": "kinase activity, inhibitor", "quantity": "IC50", "value": "> 30 µM"}
{"Structure (SMILES)": "OCc1ccccc1", "target or system": "alcohol dehydrogenase 2 Saccharomyces cerevisiae", "assay": "enzyme activity, substrate", "quantity": "kcat/Km", "value": "38 M⁻¹ s⁻¹"}
{"Structure (SMILES)": "CC(C)N(CCC(C(N)=O)(c1ccccc1)c1ccccn1)C(C)C (centres unmarked)", "target or system": "HepG2", "assay": "mitochondrial membrane potential", "conditions": "concentration not given, Tox21", "quantity": "activity outcome", "value": "inactive"}
{"Structure (SMILES)": "O=C[C@H](O)COP(=O)(O)O", "target or system": "Triosephosphate isomerase, glycosomal (Trypanosoma brucei brucei, UniProt P04789)", "assay": "substrate", "conditions": "pH 8.9", "quantity": "Km", "value": "320 µM"}
{"Structure (SMILES)": "C[C@]12C=CC(=O)C=C1C(CSC[C@H](N)C(=O)O)C[C@@H]1[C@@H]2CC[C@]2(C)C(=O)CC[C@@H]12 (some centres unmarked)", "target or system": "aromatase", "assay": "estrone formation", "how to read": "baseline: compound over exemestane", "quantity": "IC50 ratio", "value": "~12 fold"}
{"Structure (SMILES)": "c1ccc2c(c1)OCC(C1=NCCN1)O2 (centres unmarked)", "target or system": "imidazoline I2 receptor", "assay": "binding", "test system": "central nervous system", "conditions": "historical reference value", "quantity": "IC50", "value": "0.012 µM"}
{"Structure (SMILES)": "CCN(CC)C(=O)c1ccc([C@H](c2ccccc2)N2C[C@@H](C)N(Cc3cccc(F)c3)C[C@@H]2C)cc1", "target or system": "rat kappa opioid receptor", "assay": "binding", "quantity": "Ki", "value": "2.3 µM"}
{"Structure (SMILES)": "Fc1ccc(C(OCCN2CCN(CCCc3ccccc3)CC2)c2ccc(F)cc2)cc1", "target or system": "SLC6A3 (Homo sapiens, UniProt Q01959)", "conditions": "historical reference value", "quantity": "Hill coefficient", "value": 0.9}
{"Structure (SMILES)": "CN1CCc2[nH]c3ccccc3c2CC1", "target or system": "Nicotinic acetylcholine receptor alpha9/alpha10 (Rattus norvegicus, UniProt P43144+Q9JLB5)", "assay": "inhibitor", "conditions": "with: 10 µM acetylcholine", "quantity": "IC50", "value": "4.2 ± 0.2 µM"}
{"Structure (SMILES)": "FC(F)OC(F)(F)C(F)Cl (centres unmarked)", "target or system": "CYP2C19", "assay": "inhibitor", "conditions": "Tox21 screening", "quantity": "IC50", "value": "59.7 ± 39.8 µM"}
{"Structure (SMILES)": "O=c1[nH]c2ccccc2n1CCCN1CCC(n2c(=O)[nH]c3cc(Cl)ccc32)CC1", "target or system": "HepG2", "assay": "mitochondrial membrane potential", "conditions": "concentration not given, Tox21", "quantity": "activity outcome", "value": "inactive"}
{"Structure (SMILES)": "CCCC(NC)C(=O)c1ccc2c(c1)OCO2 (racemic)", "assay": "locomotor activity", "test system": "Swiss-Webster mice", "conditions": "intraperitoneal, no acclimation", "quantity": "ED50", "value": "11.5 mg/kg"}
{"Structure (SMILES)": "CCc1c2c(nc3ccc(OC(=O)N4CCC(NCCCCC(=O)O)CC4)cc13)-c1cc3c(c(=O)n1C2)COC(=O)[C@]3(O)CC", "target or system": "cytochrome P450 isoenzymes", "conditions": "concentration not given", "quantity": "CYP inhibition", "value": "no inhibition"}
{"Structure (SMILES)": "N.N.[Cl][Pt][Cl]", "target or system": "PATU", "quantity": "IC50", "value": "20.7 ± 3.1 µM"}
{"Structure (SMILES)": "CC(C)c1cccc(=O)c(O)c1", "test system": "rat female", "quantity": "no adverse effect level", "value": "14.8 mg/kg/day"}
{"Structure (SMILES)": "NCCc1ccc(Oc2ccc(O)cc2)c(I)c1", "assay": "[3H]serotonin uptake, inhibitor", "test system": "rat brain synaptosomes", "conditions": "10 µM", "quantity": "inhibition", "value": "42.2%"}
{"Structure (SMILES)": "COc1ccc(C[C@@H](C)[C@@H](C)Cc2ccc(OC)c(OC)c2)cc1OC", "test system": "rabbit", "conditions": "intravenous", "quantity": "LD50", "value": "3200 mg/kg"}
{"Structure (SMILES)": "O=C(NC(=O)c1c(F)cccc1F)Nc1cc(Cl)c(OC(F)(F)C(F)F)c(Cl)c1", "target or system": "aromatase", "assay": "Tox21 Aro-ER-tri", "quantity": "IC50", "value": "0.84 µM"}
{"Structure (SMILES)": "CC(=O)O[C@@]12CO[C@@H]1C[C@H](O)[C@@]1(C)C(=O)[C@H](OC(=O)C3CC3)C3=C(C)[C@@H](OC(=O)[C@H](O)[C@H](C=C(C)C)NC(=O)OC(C)(C)C)C[C@@](O)([C@@H](OC(=O)c4ccccc4)[C@H]21)C3(C)C", "target or system": "CFPAC-1", "assay": "cytotoxicity", "quantity": "IC50", "value": "0.00071 µM"}
{"Structure (SMILES)": "C[C@H](c1ccccc1)n1cncc1C(=O)OCCC(=O)O", "test system": "rat", "conditions": "MOC-etomidate infusion, end of 30 min infusion", "quantity": "blood concentration", "value": "1170 ± 48 µM"}
{"Structure (SMILES)": "C[n+]1cn(C2OC(COP(O)(=S)OP(=O)(O)OP(=O)(O)OP(O)(=S)OCC3OC(n4c[n+](C)c5c(=O)[nH]c(N)nc54)C(O)C3O)C(O)C2O)c2nc(N)[nH]c(=O)c21 (single isomer, unassigned)", "target or system": "Schizosaccharomyces pombe Dcp2", "assay": "decapping activity, inhibitor", "quantity": "Ki", "value": "121 ± 16 µM"}
{"Structure (SMILES)": "Nc1ncc(-c2nc(N3CCOCC3)nc(N3CCOCC3)n2)c(C(F)F)n1", "target or system": "PIK3CA (Homo sapiens, UniProt P42336, E545A)", "assay": "KinomeScan competition binding", "conditions": "10 µM", "quantity": "remaining binding", "value": "0%"}
{"Structure (SMILES)": "CC[C@H](C)[C@H](NC(=O)[C@H](Cc1ccc(O)cc1)NC(=O)[C@H](CC(N)=O)NC(=O)[C@H](CCSC)NC(=O)[C@H](CC(N)=O)NC(=O)[C@@H](NC(=O)[C@H](CCCCN)NC(=O)[C@H](CCCCN)NC(=O)[C@@H](N)CCCNC(=N)N)[C@@H](C)CC)C(=O)NCC(=O)NCC(=O)O", "target or system": "GTP 3',8-cyclase (moaA, Staphylococcus aureus, UniProt P69848)", "assay": "binding", "quantity": "Kd", "value": "50 to 150 µM"}
{"note": "Some of these lines once more (single results of other studies):"}
{"Structure (SMILES)": "COc1ccc2c(c1)[nH]c1c(C)nccc12", "target or system": "CDK2/cyclin A", "assay": "kinase activity, inhibitor", "quantity": "IC50", "value": "> 30 µM"}
{"Structure (SMILES)": "C[n+]1cn(C2OC(COP(O)(=S)OP(=O)(O)OP(=O)(O)OP(O)(=S)OCC3OC(n4c[n+](C)c5c(=O)[nH]c(N)nc54)C(O)C3O)C(O)C2O)c2nc(N)[nH]c(=O)c21 (single isomer, unassigned)", "target or system": "Schizosaccharomyces pombe Dcp2", "assay": "decapping activity, inhibitor", "quantity": "Ki", "value": "121 ± 16 µM"}
{"Structure (SMILES)": "C=C(C)[C@@H]1CCC(C)=C[C@H]1c1c(O)cc(CCCCC)cc1O", "assay": "measured: midazolam", "test system": "human", "conditions": "dose not given, with: midazolam", "quantity": "AUC increase", "value": "58%"}
{"Structure (SMILES)": "C[C@]12C=CC(=O)C=C1C(CSC[C@H](N)C(=O)O)C[C@@H]1[C@@H]2CC[C@]2(C)C(=O)CC[C@@H]12 (some centres unmarked)", "target or system": "aromatase", "assay": "estrone formation", "how to read": "baseline: compound over exemestane", "quantity": "IC50 ratio", "value": "~12 fold"}
{"Structure (SMILES)": "NCCc1ccc(Oc2ccc(O)cc2)c(I)c1", "assay": "[3H]serotonin uptake, inhibitor", "test system": "rat brain synaptosomes", "conditions": "10 µM", "quantity": "inhibition", "value": "42.2%"}
